Assay results gathered from unrelated publications.
Each numbered part is a random draw from the data of one study; scales do not carry over between parts.

Set 1 — method: protein binding microarray; form: double-stranded DNA, one strand shown; sample: in vitro; concentration: not given; relative to: not given; direction: higher = stronger binding; endpoint: E-score
Target: Histone acetyltransferase KAT6A, both winged helices, GST fusion (KAT6A, Homo sapiens, UniProt Q92794, residues 1-181)
Notes: 8-mer, flanks averaged, mean of 2 arrays, mostly near background
Target sequence (chain): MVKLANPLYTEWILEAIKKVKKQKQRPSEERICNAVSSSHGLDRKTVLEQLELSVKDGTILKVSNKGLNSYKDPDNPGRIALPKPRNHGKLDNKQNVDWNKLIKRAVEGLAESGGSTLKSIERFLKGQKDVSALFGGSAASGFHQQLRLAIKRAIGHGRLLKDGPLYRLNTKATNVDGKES
CAACTAAC: -0.035
GGAGGTAC: -0.0603
CGCCTCTC: -0.102
AGGATTTC: -0.13
CCGCGCAC: 0.311
AGACTAAA: -0.0499
AACAATAT: 0.0292
AGTTCCAG: -0.0521
AGGGAAAC: -0.0426
TAAGACTA: -0.138
AACGCGCG: 0.392
ACTCTAGC: 0.0227
CGACTGGA: 0.00878
GGAATGAC: 0.0256
CCAATGGG: -0.0964
ACGCCACA: 0.0356
CCATGGAA: -0.16
ACAGCCCT: -0.152
GCTCGAGA: 0.0466
ACGAATCC: -0.0248
CAGTATCC: -0.0263
ATCCTTTG: -0.0679
CCCCCAAC: -0.152
ATCGCTTA: 0.0926
AGCAATTG: 0.0767

Set 2 — method: universal PBM; form: double-stranded DNA, one strand shown; sample: in vitro; concentration: 600 nM; direction: higher = stronger binding; endpoint: E-score
Target: Sal-like protein 4, full length isoform A (SALL4, Homo sapiens, UniProt Q9UJQ4, residues 1-1053)
Chain of UniProt Q9UJQ4 (whole entry, looked up): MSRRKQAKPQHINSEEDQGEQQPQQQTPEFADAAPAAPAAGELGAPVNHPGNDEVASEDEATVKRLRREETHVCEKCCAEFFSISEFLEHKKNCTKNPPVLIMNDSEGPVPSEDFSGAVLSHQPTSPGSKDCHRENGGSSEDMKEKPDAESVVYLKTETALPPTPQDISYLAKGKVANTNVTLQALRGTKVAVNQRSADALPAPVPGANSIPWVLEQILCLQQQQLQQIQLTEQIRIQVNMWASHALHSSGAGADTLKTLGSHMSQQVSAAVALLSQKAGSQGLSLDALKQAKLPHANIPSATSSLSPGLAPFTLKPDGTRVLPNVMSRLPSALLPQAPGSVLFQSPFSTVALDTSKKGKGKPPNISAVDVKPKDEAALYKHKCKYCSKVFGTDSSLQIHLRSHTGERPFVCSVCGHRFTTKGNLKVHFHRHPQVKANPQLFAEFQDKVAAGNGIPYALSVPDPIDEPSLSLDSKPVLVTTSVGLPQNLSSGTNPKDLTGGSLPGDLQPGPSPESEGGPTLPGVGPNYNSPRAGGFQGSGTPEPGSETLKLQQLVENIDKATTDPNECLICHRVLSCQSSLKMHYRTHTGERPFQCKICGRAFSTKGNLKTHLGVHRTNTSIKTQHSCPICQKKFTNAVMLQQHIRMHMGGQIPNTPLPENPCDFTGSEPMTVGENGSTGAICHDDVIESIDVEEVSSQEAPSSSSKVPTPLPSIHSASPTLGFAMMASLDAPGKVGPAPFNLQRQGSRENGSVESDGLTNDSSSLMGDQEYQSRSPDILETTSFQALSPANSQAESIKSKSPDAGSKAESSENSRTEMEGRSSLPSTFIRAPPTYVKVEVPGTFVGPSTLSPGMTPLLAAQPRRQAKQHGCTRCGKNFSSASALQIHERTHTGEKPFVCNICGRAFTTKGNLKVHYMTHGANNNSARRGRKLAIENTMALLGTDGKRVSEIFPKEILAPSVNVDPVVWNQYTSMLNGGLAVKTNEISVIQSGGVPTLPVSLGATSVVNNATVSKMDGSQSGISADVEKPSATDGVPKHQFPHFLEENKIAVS
Notes: 8-mer, flanks averaged, mean of replicates
GGAATTTA: 0.111
TAGTAATA: 0.413
CCGATACG: -0.205
ACGTGCTA: 0.0743
CGCTGCTC: -0.213
AAAATGAG: 0.25
GGCGGCAA: -0.231
AATCAATT: 0.275
ATATGGTC: 0.189
AATTAAAG: 0.273
CACCAACA: -0.136
CGCCGAGA: -0.291
CAGCGGTC: -0.273
GTGTCATA: 0.282
GAAAACTC: 0.00342
AGAGATGA: 0.135
AACTCTAC: -0.119

Set 3 — organism: Saccharomyces cerevisiae; observed: binding; method: yeast competitive growth sequencing; form: peptide; notes: cyclin B2-Cln2 chimera; direction: direction not given; endpoint: enrichment score
TSSAQRRLEIPSGGAD: -0.28
ESSTVSEEDYFSSHRD: 1.38
SFLIEYEFLIPPSLKP: 0.243
RDLFDCDFGDLTPLDF: 1
PFSENVSAVQKLDFSD: 1.21
ISRLFPPRTPGWHQLQ: -1.01
AGSAKRRLFGEDPPKE: 0.254
SPREGHMMDALYAQVK: 0.592
PLRKAKRARLCSSSSS: 2.16
KPITLDTTDFQESFVT: 1.72
TSPGPVLLHPSPSTTQ: 0.387
KRRLDLETDHQY: 0.17
TRRRLFVENDSP: -0.542

Set 4 — method: RNA Bind-n-Seq; form: RNA; sample: in vitro; concentration: 200 nM; notes: whole 134-nt RNA, ends assumed; with: 150 mM LiCl; relative to: input library; direction: higher = stronger binding; endpoint: log2 enrichment; each molecule: 7-deaza-guanosine replaces G
Target: Ras GTPase-activating protein-binding protein 1, full length (G3BP1, Homo sapiens, UniProt Q13283)
Chain of UniProt Q13283 (whole entry, looked up): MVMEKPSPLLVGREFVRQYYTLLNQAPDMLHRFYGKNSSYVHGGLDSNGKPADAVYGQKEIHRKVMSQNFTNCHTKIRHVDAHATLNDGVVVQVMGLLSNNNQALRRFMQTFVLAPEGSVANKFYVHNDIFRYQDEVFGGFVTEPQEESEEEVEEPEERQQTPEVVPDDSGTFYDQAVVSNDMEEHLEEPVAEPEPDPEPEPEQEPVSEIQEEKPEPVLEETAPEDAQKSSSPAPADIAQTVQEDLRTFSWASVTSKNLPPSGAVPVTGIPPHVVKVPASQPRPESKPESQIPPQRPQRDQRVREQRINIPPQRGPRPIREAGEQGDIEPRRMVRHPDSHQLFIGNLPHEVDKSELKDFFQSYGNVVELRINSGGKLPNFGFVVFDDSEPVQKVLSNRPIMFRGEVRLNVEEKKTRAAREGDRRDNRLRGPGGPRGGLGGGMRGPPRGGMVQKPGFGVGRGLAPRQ
Constant ends, left off below: GGGAGUUCUACAGUCCGACGAUC … UGGAAUUCUCGGGUGUCAAGG
CUCAAGUCCUGUGCUACACAUCGUAUGUACCGAAUCGGAGGUUUUUGGUUUGGAAAGUAUUAUGUUACGCCGUUCGGAUCUGCACUUCCA: -0.526
AAGUCCUGUGCUACACAUCGUAUGUACCGAAUCGGGAAAGGGAGGGUUUUUUUGGGAAAGUAUUAUGUUACGCCGUUCGGAUCUGCACUU: -0.329
CAAGUCCUGUGCUACACAUCGUAUGUACCGAAUCGGGAAAAGGAAAAGGGAAAAGGAAAGUAUUAUGUUACGCCGUUCGGAUCUGCACUU: -1.13
AAGUCCUGUGCUACACAUCGUAUGUACCGAAUCGGAAAGGGGAAAGGGGAAAGGGGAAAGUAUUAUGUUACGCCGUUCGGAUCUGCACUU: 0.629
ACCAUGCAGGUGGGCAUCUUUGGGAAGUGGGGCAAGGGGGGGAUAGGGAGCGGGGUAACACUUUGGGAACAGGUGGUCCCAGGUCGUUUC: 0.313
ACCAUGCAGGUGGGCAUCUUUGGGAAGUGGGGCAAGGGGGGGAUAGGGAGGGGGGUAACACUUUGGGAACAGGUGGUCCCAGGUCUUUUC: 0.412
CAAGUCCUGUGCUACACAUCGUAUGUACCGAAUCGGGUUUUUGGGUGGGAAAGGGAAAGUAUUAUGUUACGCCGUUCGGAUCUGCACUUC: -0.0449
UCCUGUGCUACACAUCGUAUGUACCGAAUCGGAAAAAAGGGAAAAAAGGAAAAAAGGGGAAAGUAUUAUGUUACGCCGUUCGGAUCUGCA: -0.792
CAAGUCCUGUGCUACACAUCGUAUGUACCGAAUCGGGGAAAGGGAAAGGAAAGGGGAAAGUAUUAUGUUACGCCGUUCGGAUCUGCACUU: -0.37
UCAAGUCCUGUGCUACACAUCGUAUGUACCGAAUCGGGAAAAAGGGUGGGAGGGAAAGUAUUAUGUUACGCCGUUCGGAUCUGCACUUCC: -0.323
UAACUUUAGAGGGGGAUCUGAUGGAUAUGGCAGUGGACGUGGAUUUGGGGAUGGCUAUAAUGGGUAUGGAGGAGGACCUGGAGGUGGCAA: 0.0156

Set 5 — method: RNA Bind-n-Seq; form: RNA; sample: in vitro; concentration: 365 nM; relative to: no-protein control; direction: higher = stronger binding; endpoint: RBNS enrichment (R)
Target: RNA binding protein fox-1 homolog 2, RRM domain, GST-SBP tag (RBFOX2, Homo sapiens, UniProt O43251-10, residues 100-194)
Notes: natural RNA segment, single round, ends assumed
Constant ends, left off below: GGGAGUUCUACAGUCCGACGAUC … UGGAAUUCUCGGGUGCCAA
Construct (chain): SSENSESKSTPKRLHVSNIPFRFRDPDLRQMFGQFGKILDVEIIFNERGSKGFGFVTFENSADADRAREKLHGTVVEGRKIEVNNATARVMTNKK
GUCCUCACUAAGCUAGAUAAUGUCUGUGACGGAAGUAAGAAAGUCCUCCUCUGGGAUACGGCACUUACACAUGGGAAGAAUGGUACGGGGAAGUGUAACACCUCAGAAAG: 0.796
GCAGGACAAGGGGACUGGAAGAGGUUUCCUCAGAAGGCUCCCGGAACUUGGAGUCAGGCAUCGUGACUGGUAGGGCUCAGAACUGUUCCCAUCCCUUUCCCUGCUUCAGC: 0.332
AGUGGAGCACUGGCAUCUCGAGCUUGGGAAGGUCUUUAGAAUUAGGCUCUCUGGAGCAGGGCCUGUAGUGUUAACAAGUUCUCUGGGUGGUUCUAUUCUGAGCACCCCUG: 0.702
GUCAUUGAGUAUUGAAGCCAUGACCUGGACUUCUGAAGGCUGUGACUUCACUAGAGCUAAGACACUGCUGGCAUUGUGGCCCCAUCCUUCCAAGACACAGGGAAGGAAGG: 0.431
UUAACUGUGAUCCAGUACCUGUAAUACAGGAACACACAAUGUAUAUGGGGAAGCCCUUUGGCUUCAGAUUGCCUAUGUUUGAAUAAUAAUAAUAAUAGAUGGCCUAUUGU: 0.725
GCUAGGCUAAGUCAAGAUCAACAUUCCAGGGUUGGUAAUGUUGGAUGAUGAAACAUUCAUUUUUACCUUGUGGAUGCUAGUGCUGUAGAGUUCACUGUUGUACACAGUCU: 0.336
UACAAGUAAUAGAACUAUGACUGUAAGCCUCAGUACUGUACAAGGGAAGCUUUUCCUCUCUCUAAUUAGCUUUCCCAGUAUACUUCUUAGAAAGUCCAAGUGUUCAGGAC: 0.421
CUGUCACUGGAGAAUAGGAUGUCAGAGCUGGGCAGGACUGGUACCCAUCAUUUGCAGUUUGCAUGUGGGGAAACCAAAGCCCUAAGAAACAACAGUUCCUGGCCCAAAAA: 1.37
CAGCAUCCCUGGGGAAACCUGACUUGCAAUUUCUAGAGUUUAAGAUCUUCCCAUCGGCUGUGGCAAGCUCUUCCCCUGUGUGGAAUUUUGUUAUCUUUAUUUAGCUGAGG: 0.452
ACCUCAGCCUCCUGUCCCCGUCCUGGUCUUCCCUACACAGUCUGGAGAGGGCUCUGAAAGGUCCACAGAGUUUGACAGACACGAAAGCAACCCAUUGCCCCGUUGACCUG: 0.383
ACUUUGCCAGCAGCUUCUAGCCUUAAAACCCCAGGAACUUCUGCAAAUAUGAAUGGACCCAUUUCAAGAACAAGUUCUAGUAUCCCUGCUAAUAAUCCUUUAGUUACUCA: 0.492
GCUCUUGGAAAAGAGGUUUUCUUUUCUAAGCCGCCGUUCGUGACCUCUGACCUCUGGUUCUAUUUUGGUAAGCUCCCAGCAGACACUUCCAAGUCUUGUACCAAGGGCAG: 0.218

Set 6 — method: protein-binding microarray; form: double-stranded DNA, one strand shown; sample: in vitro; concentration: not given; direction: higher = stronger binding; endpoint: E-score
Target: Protein C-ets-1 (ETS1, Homo sapiens, UniProt P14921, residues 1-441, full length assumed)
Notes: k-mer, scored over probes, only values ≥0.25
Residues (chain): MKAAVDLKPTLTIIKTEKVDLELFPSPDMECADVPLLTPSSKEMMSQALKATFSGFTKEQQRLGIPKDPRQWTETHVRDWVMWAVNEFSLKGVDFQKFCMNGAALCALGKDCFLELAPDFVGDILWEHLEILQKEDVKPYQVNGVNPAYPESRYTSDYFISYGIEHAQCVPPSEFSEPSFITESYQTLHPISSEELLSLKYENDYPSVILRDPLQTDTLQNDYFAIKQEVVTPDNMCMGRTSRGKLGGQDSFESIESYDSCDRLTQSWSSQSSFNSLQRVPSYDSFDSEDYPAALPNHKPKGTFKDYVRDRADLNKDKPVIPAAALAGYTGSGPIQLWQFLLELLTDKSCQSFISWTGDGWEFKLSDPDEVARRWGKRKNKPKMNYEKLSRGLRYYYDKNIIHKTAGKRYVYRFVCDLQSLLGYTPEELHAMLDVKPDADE
ACATCCTA: 0.4
AGGGGGAA: 0.307
GTAACGGA: 0.295
AGGACGTA: 0.318
ACAGGATC: 0.282
CCGGTTTC: 0.264
GGAAGAGA: 0.354
AAGTTCCT: 0.275
CGGCTTCC: 0.433
ATTTCCGA: 0.427
CAACTTCC: 0.474
CCAGTTCC: 0.357
AGGATATC: 0.368
GCGCTTCC: 0.435
GGAAATAC: 0.451
GACGGATA: 0.395

For quick reference, copied from above (set 1):
AGGATTTC: -0.13
CCGCGCAC: 0.311
AGACTAAA: -0.0499
AACAATAT: 0.0292
AGTTCCAG: -0.0521
AGGGAAAC: -0.0426
TAAGACTA: -0.138
AACGCGCG: 0.392
ACTCTAGC: 0.0227
CGACTGGA: 0.00878
GGAATGAC: 0.0256
CCAATGGG: -0.0964
ACGCCACA: 0.0356
CCATGGAA: -0.16
ACAGCCCT: -0.152
GCTCGAGA: 0.0466
